Assay results pooled from the literature.
Lines come from different studies, so protocols differ. Several values in a cell are separate wells, animals, samples, runs or records. Numbers after ± are the reported error.

Cc1cc(C)n(CCN(CCN)CCCCCCNC(=O)[C@@H](N)Cc2c[nH]cn2)n1.[99Tc+].[C-]#[O+].[C-]#[O+].[C-]#[O+]
tissue uptake (BALB/c nude mice, MCF7 xenograft, spleen; intravenous, 15 min): 1.12 ± 0.18 %IA/g

N#C[C@@H]1CCCN1C(=O)CNC(=O)c1ccnc2ccc(OCCCN3CCN(C(=O)CCc4ccc5c(c4)CN4CCN6CC(=O)[O][68Ga-]([O]C(=O)C4)([O]5)[O]c4ccc(CCC(=O)N5CCN(CCCOc7ccc8nccc(C(=O)NCC(=O)N9CCC[C@H]9C#N)c8c7)CC5)cc4C6)CC3)cc12
tissue uptake (BALB/c nude mice, U-87 MG xenograft, spleen; 1 h, blocking, together with: DOTA-FAPI-04 40 nmol/mouse co-injected): 0.81 ± 0.28 %ID/g

CCCC[C@H](NC(=O)CNC(=O)CNC(=O)[C@H](CCCCNC(=O)C(C)c1ccc(CC(C)C)cc1)NC(=O)CN1CCN(CC(=O)O)CCN(CC(=O)O)CCN(CC(=O)O)CC1)C(=O)N[C@H]1CC(=O)NCCCC[C@@H](C(N)=O)NC(=O)[C@H](Cc2c[nH]c3ccccc23)NC(=O)[C@H](CCCNC(=N)N)NC(=O)[C@@H](Cc2ccccc2)NC(=O)[C@H](Cc2c[nH]cn2)NC1=O (stereo partly shown) [lutetium-177 labelled]
tissue uptake (C57 mice, tumour-bearing, lung; 2 h): 1.9 ± 0.46 %ID/g

COc1ccc2c(c1)C(C)(C)C(/C=C/C1=C(Oc3ccc(C(=O)NCCCCOc4cc(CN(Cc5ccccn5)Cc5ccccn5)cc(CN(Cc5ccccn5)Cc5ccccn5)c4)cc3)C(=C/C=C3/N(CCCCS(=O)(=O)[O-])c4ccc(OC)cc4C3(C)C)CCC1)=[N+]2CCCCS(=O)(=O)[O-].O=[N+]([O-])[O-].O=[N+]([O-])[O-].[99Tc+].[C-]#[O+].[C-]#[O+].[C-]#[O+].[Zn+2]
tissue uptake (BALB/c mice, healthy, muscle; 12 h post-injection): 0.32 %ID/g and 0.37 %ID/g and 0.29 %ID/g

CCCC[C@H](NC(=O)COCCOCCNC(=O)CN1CCN(CC(=O)O)CCN(CC(=O)O)CC1)C(=O)N[C@H]1CC(=O)NCCCC[C@@H](C(N)=O)NC(=O)[C@H](Cc2c[nH]c3ccccc23)NC(=O)[C@H](CCCNC(=N)N)NC(=O)[C@@H](Cc2ccccc2)NC(=O)[C@H](Cc2c[nH]cn2)NC1=O [fluorine-18 labelled]
tissue uptake (C57 mice B16-F10 melanoma, muscle; intravenous, 0.37 MBq, 0.5 h): 0.55 ± 0.13 %ID/g

CC(C)C[C@H](NC(=O)[C@@H](CCCCNC(=O)[C@@H](Cc1ccccc1)NC(=O)CCCCCCCNC(=O)CN1CCN(CC(=O)O)CCN(CC(=O)O)CCN(CC(=O)O)CC1)NC(=O)[C@H](Cc1ccc(O)cc1)NC(=O)[C@H](CO)NC(=O)[C@H](Cc1c[nH]c2ccccc12)NC(=O)[C@H](Cc1c[nH]cn1)NC(=O)[C@@H]1CCC(=O)N1)C(=O)N[C@@H](CCCNC(=N)N)C(=O)N1CCC[C@H]1C(=O)NCC(N)=O [indium-111 labelled]
tissue uptake (male athymic nude mice, DU-145 prostate cancer xenograft, intestines; intravenous, 0.037 MBq, 1 h): 0.87 ± 0.18 %ID

COc1ccc(Nc2nc(Nc3ccc(OCCOCC[18F])cc3)ncc2Br)cc1
tissue uptake (ICR mice, S180 tumour-bearing, lung; intravenous, 370 kBq, 5 min): 10.4 ± 0.52 %ID/g

N#C[C@@H]1CCCN1C(=O)CNC(=O)c1ccnc2ccc(OCCCN3CCN(C(=O)CCc4ccc5c(c4)CN4CCN(Cc6cc(CCC(=O)O)ccc6O)CC(=O)[O][Al-]([18F])([O]C(=O)C4)[O]5)CC3)cc12 (stereo partly shown)
tissue uptake (BALB/c nude mice, U-87 MG xenograft, brain; 1 h): 0.08 ± 0.01 %ID/g

O=C(NCC1OC2CCC=CCCC2O1)c1ccc(COCCOCCOCC[18F])cc1 (stereo not shown)
tissue uptake (healthy female BALB/c nude mice, large intestine; intravenous, 7.4 MBq per mouse, 60 min): 12.9 ± 0.2 %ID/g

O=C(O)CCCOc1ccc([18F])cc1-c1cc(-c2ccccc2C(F)(F)F)n(-c2ccccc2)n1
tissue uptake (mice, large intestine; intravenous, 30 min): 0.34 ± 0.05 %ID/g

CCCC[C@H](NC(=O)CNC(=O)CNC(=O)[C@H](CCCCNC(=O)[C@H](CCN)NC(=O)C(C)c1ccc(CC(C)C)cc1)NC(=O)CN1CCN(CC(=O)O)CCN(CC(=O)O)CCN(CC(=O)O)CC1)C(=O)N[C@H]1CC(=O)NCCCC[C@@H](C(N)=O)NC(=O)[C@H](Cc2c[nH]c3ccccc23)NC(=O)[C@H](CCCNC(=N)N)NC(=O)[C@@H](Cc2ccccc2)NC(=O)[C@H](Cc2c[nH]cn2)NC1=O (stereo partly shown) [lutetium-177 labelled]
tissue uptake (C57 mice, tumour-bearing, tumor; 2 h): 22.64 ± 0.16 %ID/g

CCCC[C@H](NC(=O)CCCCCCCNC(=O)CN1CCN(CC(=O)O)CCN(CC(=O)O)CC1)C(=O)N[C@H]1CC(=O)NCCCC[C@@H](C(N)=O)NC(=O)[C@H](Cc2c[nH]c3ccccc23)NC(=O)[C@H](CCCNC(=N)N)NC(=O)[C@@H](Cc2ccccc2)NC(=O)[C@H](Cc2c[nH]cn2)NC1=O [fluorine-18 labelled]
tissue uptake (C57 mice B16-F10 melanoma, spleen; intravenous, 0.37 MBq, 2 h): 0.28 ± 0.06 %ID/g

N#C[C@@H]1CCCN1C(=O)CNC(=O)c1ccnc2ccc(OCCCN3CCN(C(=O)CCc4ccc(O)c(CN5CCN6CC(=O)[O][Al-]([18F])([O]C(=O)C5)[O]c5ccc(CCC(=O)N7CCN(CCCOc8ccc9nccc(C(=O)NCC(=O)N%10CCC[C@H]%10C#N)c9c8)CC7)cc5C6)c4)CC3)cc12 (stereo partly shown)
tissue uptake (BALB/c nude mice, U-87 MG xenograft, bone; 1 h, blocking, together with: DOTA-FAPI-04 40 nmol/mouse co-injected): 12.5 ± 4.44 %ID/g

CCCC[C@H](NC(=O)CNC(=O)CNC(=O)[C@H](CCCCNC(=O)[C@H](CC(=O)O)NC(=O)C(C)c1ccc(CC(C)C)cc1)NC(=O)CN1CCN(CC(=O)O)CCN(CC(=O)O)CCN(CC(=O)O)CC1)C(=O)N[C@H]1CC(=O)NCCCC[C@@H](C(N)=O)NC(=O)[C@H](Cc2c[nH]c3ccccc23)NC(=O)[C@H](CCCNC(=N)N)NC(=O)[C@@H](Cc2ccccc2)NC(=O)[C@H](Cc2c[nH]cn2)NC1=O (stereo partly shown) [lutetium-177 labelled]
tissue uptake (C57 mice, tumour-bearing, pancreas; 2 h): 0.29 ± 0.05 %ID/g

O=C(NCC1OC2CCC=CCCC2O1)c1ccc([18F])nc1 (stereo not shown)
tissue uptake (healthy female BALB/c nude mice, bladder; intravenous, 7.4 MBq per mouse, 2 min): 5 ± 2.2 %ID/g

Cc1cc(C)n(CCN(CCN)CCCCCCNC(=O)[C@@H](N)Cc2c[nH]c3ccccc23)n1.[99Tc+].[C-]#[O+].[C-]#[O+].[C-]#[O+]
tissue uptake (BALB/c nude mice, A549 xenograft, spleen; intravenous, 4 h): 1 ± 0.35 %IA/g

A few entries again:
O=C(NCC1OC2CCC=CCCC2O1)c1ccc(COCCOCCOCC[18F])cc1 (stereo not shown)
tissue uptake (healthy female BALB/c nude mice, large intestine; intravenous, 7.4 MBq per mouse, 60 min): 12.9 ± 0.2 %ID/g
